Results of several laboratories.
Each line is one published result; not all experiments were run side by side. ± gives the spread as reported.
Organism: Klebsiella pneumoniae

Structure (SMILES)	test	test system	conditions	MIC
CC[P+](CC)(CC)[Au-][S][C@@H]1O[C@H](COC(C)=O)[C@@H](O[C@@H]2O[C@H](COC(C)=O)[C@H](OC(C)=O)[C@H](OC(C)=O)[C@H]2OC(C)=O)[C@H](OC(C)=O)[C@H]1OC(C)=O	–	ATCC 700603	–	> 265 µM
CCCCCCCCCC(=O)NCCCC[C@H](NC(=O)[C@H](CC(C)C)NC(=O)[C@H](CCCCN)NC(=O)[C@H](CCCCNC(=O)[C@H](CC(C)C)NC(=O)[C@H](CCN)NC(=O)[C@H](CCCCNC(=O)[C@H](Cc1ccccc1)NC(=O)[C@@H](N)CCCN)NC(=O)[C@H](Cc1ccccc1)NC(=O)[C@@H](N)CCCN)NC(=O)[C@H](CC(C)C)NC(=O)[C@H](CCN)NC(=O)[C@H](CCCCNC(=O)[C@H](Cc1ccccc1)NC(=O)[C@@H](N)CCCN)NC(=O)[C@H](Cc1ccccc1)NC(=O)[C@@H](N)CCCN)C(N)=O	broth microdilution	NCTC 418	37 °C	> 64 mg/L
COc1c(NC(=O)c2ccc(NC(=O)c3ccc(NC(=O)[C@H](CC#N)NC(=O)c4ccc(NC(=O)/C(C)=C/c5ccc(O)cc5)cc4)cc3)c(OC)c2O)ccc(C(=O)O)c1O	microbial growth	DSM30104	–	> 64 mg/L
Oc1ccc(C(F)(F)F)cc1-c1nc2c(Br)cc(Br)cc2[nH]1	–	B9	–	25 µM
CCn1[c]([Au-][Cl])[n+](CC)c2ccc(C(=O)OC)cc21	broth dilution	DSM 11678	20 h, 37 °C	91.8 ± 39.7 µM
CC[S+]([O-])C1C(CO)OC(OC2C(N)CC(N)C(O)C2OC2OC(CO)C(OC3OC(CN)C(O)C(O)C3N)C2O)C(N)C1O (mixture of isomers)	–	AG215	–	64 mg/L
CC(C)C[C@H](NC(=O)[C@H](CC(N)=O)NC(=O)[C@H](CCCNC(=N)N)NC(=O)[C@@H](CC(C)C)NC(=O)[C@H](Cc1ccc2ccccc2c1)NC(=O)[C@H](CC(=O)O)NC(=O)[C@H](CCCCN)NC(=O)[C@@H](CC(C)C)NC(=O)[C@H](CCCNC(=N)N)NC(=O)[C@H](CCC(N)=O)NC(=O)[C@@H](NC(=O)[C@@H](CC(C)C)NC(=O)[C@H](CCCNC(=N)N)NC(=O)[C@H](CCCCN)NC(=O)[C@H](Cc1ccccc1)NC(=O)CN)C(C)C)C(=O)N[C@H](C(N)=O)C(C)C	broth microdilution	ATCC 13883	–	25 µM
CC[P+](CC)(CC)[Au-][S]c1ccc(SCC(=O)N[C@H]2[C@H](OC(C)=O)O[C@H](COC(C)=O)[C@@H](OC(C)=O)[C@@H]2OC(C)=O)cc1	–	ATCC 700603	–	> 303 µM
CC(C)C[C@H](NC(=O)[C@H](CC(N)=O)NC(=O)[C@H](CCCNC(=N)N)NC(=O)[C@@H](CC(C)C)NC(=O)[C@H](Cc1ccc(-c2ccccc2)cc1)NC(=O)[C@H](CC(=O)O)NC(=O)[C@H](CCCCN)NC(=O)[C@@H](CC(C)C)NC(=O)[C@H](CCCNC(=N)N)NC(=O)[C@H](CCC(N)=O)NC(=O)[C@@H](NC(=O)[C@@H](CC(C)C)NC(=O)[C@H](CCCNC(=N)N)NC(=O)[C@H](CCCCN)NC(=O)[C@H](Cc1ccc(-c2ccccc2)cc1)NC(=O)CN)C(C)C)C(=O)N[C@H](C(N)=O)C(C)C	broth microdilution	ATCC 13883	–	3.1 µM
CC(=O)N1CCc2cc(S(=O)(=O)N3CCN(c4nnc(C(F)(F)F)s4)CC3)ccc21	broth microdilution	10031	22 h	> 64 mg/L
c1ccc(CN2CCOCCOCCN(CCCCCCCCCCCCCCN3CCOCCOCCN(CCCCCCCCCCCCCCN4CCOCCOCCN(Cc5ccccc5)CCOCCOCC4)CCOCCOCC3)CCOCCOCC2)cc1	–	ESBL, fluoroquinolone-resistant	–	12 µM
CC[C@H](C)CCCCC(=O)N[C@@H](CCN)C(=O)N[C@H](C(=O)N[C@H](CO)C(=O)N[C@H]1CCNC(=O)[C@H](CC(C)C)NC(=O)[C@H](CCN)NC(=O)[C@H](CCN)NC(=O)[C@H]([C@@H](C)CC)NC(=O)[C@@H](CC(C)C)NC(=O)[C@H](CCN)NC1=O)[C@@H](C)O	–	ATCC 13883	–	1 mg/L
CC[C@H](C)[C@@H]1NC(=O)[C@@H]2CSSC[C@@H]3NC(=O)[C@H](C(C)C)NC(=O)CNC(=O)CNC(=O)[C@H](CCCNC(=N)N)NC(=O)[C@H](CCCNC(=N)N)NC(=O)CNC(=O)[C@H](C(C)C)NC(=O)[C@@H]4CSSC[C@H](NC(=O)[C@H](CC(C)C)NC(=O)[C@H](CCCNC(=N)N)NC(=O)CNC(=O)CNC(=O)[C@H](CO)NC(=O)CNC(=O)[C@H](CO)NC(=O)CNC(=O)[C@@H]5CSSC[C@H](NC(=O)[C@H](CC(=O)O)NC(=O)[C@H](CO)NC(=O)[C@H](CC(=O)O)NC(=O)[C@H](CCCNC(=N)N)NC(=O)[C@H](CCCNC(=N)N)NC(=O)[C@H](CSSC[C@H](NC1=O)C(=O)N[C@@H](CCCNC(=N)N)C(=O)NCC(=O)N[C@@H](CC(N)=O)C(=O)NCC(=O)N[C@@H](Cc1ccc(O)cc1)C(=O)N5)NC(=O)[C@H](CCCNC(=N)N)NC(=O)[C@H](CCC(N)=O)NC(=O)[C@H](CC(C)C)NC(=O)[C@H]([C@@H](C)CC)NC(=O)[C@H](CCCCN)NC(=O)[C@@H]1CCCN1C3=O)C(=O)N1CCC[C@H]1C(=O)NCC(=O)N[C@@H](C)C(=O)N2)C(=O)N[C@@H](Cc1ccc(O)cc1)C(=O)N[C@H]1CSSC[C@H](NC(=O)[C@H](Cc2ccccc2)NC(=O)[C@H](CCCNC(=N)N)NC(=O)[C@H](CCCNC(=N)N)NC(=O)[C@H](CCCNC(=N)N)NC1=O)C(=O)N[C@@H](C(C)C)C(=O)N4	–	K6, CAMHB	–	12.5 µM
CCCS[C@H]1[C@H](O)[C@@H](N)[C@@H](O[C@H]2[C@H](O[C@@H]3O[C@H](CO)[C@@H](O[C@H]4O[C@@H](CN)[C@@H](O)[C@H](O)[C@H]4N)[C@H]3O)[C@@H](O)[C@H](N)C[C@@H]2N)O[C@@H]1CO	–	AG215	–	2 to 4 mg/L
CCn1cc[n+](CC)[c]1[Au-][Cl]	broth dilution	DSM 11678	20 h, 37 °C	18.7 ± 9.2 µM
NC[C@@H]1O[C@H](O[C@H]2[C@@H](O)[C@H](O[C@@H]3[C@@H](O)[C@H](N)C[C@H](N)[C@H]3O[C@H]3O[C@H](CO)[C@@H](SCCF)[C@H](O)[C@H]3N)O[C@@H]2CO)[C@H](N)[C@@H](O)[C@@H]1O	–	AG215	–	4 mg/L
CC(C)C[C@@H](NC(=O)[C@@H](CC(C)C)NC(=O)[C@@H](CCCCN)NC(=O)[C@@H](CCCCNC(=O)[C@@H](CC(C)C)NC(=O)[C@@H](CC(C)C)NC(=O)[C@@H](CCCCNC(=O)[C@@H](CC(C)C)NC(=O)[C@@H](CCCCN)NC(=O)[C@@H](CCCCNC(=O)[C@@H](CC(C)C)NC(=O)[C@H](N)CCCCN)NC(=O)[C@@H](CC(C)C)NC(=O)[C@H](N)CCCCN)NC(=O)[C@@H](CC(C)C)NC(=O)[C@@H](CCCCN)NC(=O)[C@@H](CCCCNC(=O)[C@@H](CC(C)C)NC(=O)[C@H](N)CCCCN)NC(=O)[C@@H](CC(C)C)NC(=O)[C@H](N)CCCCN)NC(=O)[C@@H](CC(C)C)NC(=O)[C@@H](CC(C)C)NC(=O)[C@@H](CCCCNC(=O)[C@@H](CC(C)C)NC(=O)[C@@H](CCCCN)NC(=O)[C@@H](CCCCNC(=O)[C@@H](CC(C)C)NC(=O)[C@H](N)CCCCN)NC(=O)[C@@H](CC(C)C)NC(=O)[C@H](N)CCCCN)NC(=O)[C@@H](CC(C)C)NC(=O)[C@@H](CCCCN)NC(=O)[C@@H](CCCCNC(=O)[C@@H](CC(C)C)NC(=O)[C@H](N)CCCCN)NC(=O)[C@@H](CC(C)C)NC(=O)[C@H](N)CCCCN)C(N)=O	broth microdilution	NCTC 418	37 °C	16 mg/L
CC(=O)N1CCc2cc(S(=O)(=O)N3CCN(c4nc(C(F)(F)F)cs4)CC3)ccc21	microbial growth, broth dilution	10031	22 h	10.1 mg/L
Oc1c(Cl)cc(Cl)c2cccnc12	microbial growth, agar dilution	ATCC700603	–	1200 µM
CC(C)C(O)C(NC(=O)[C@H](Cc1ccc(O)cc1)NC(=O)C(Cc1ccc(O)cc1)[N+](C)(C)C)C(=O)N[C@@H](C)C(=O)O (stereo partly shown)	–	ATCC 27736	–	> 100 µM
CC(C)C[C@H](NC(=O)[C@H](CC(N)=O)NC(=O)[C@H](CCCNC(=N)N)NC(=O)[C@@H](CC(C)C)NC(=O)[C@H](Cc1ccccc1)NC(=O)[C@H](CC(=O)O)NC(=O)[C@H](CCCCN)NC(=O)[C@@H](CC(C)C)NC(=O)[C@H](CCCNC(=N)N)NC(=O)[C@H](CCC(N)=O)NC(=O)[C@@H](NC(=O)[C@@H](CC(C)C)NC(=O)[C@H](CCCNC(=N)N)NC(=O)[C@H](CCCCN)NC(=O)[C@H](Cc1ccc(-c2ccccc2)cc1)NC(=O)CN)C(C)C)C(=O)N[C@H](C(N)=O)C(C)C	broth microdilution	ATCC 13883	–	25 µM
CCCCCCCCCCCCCc1cc(O)cc(O)c1	microbial growth, broth dilution	ATCC10031	–	> 64 mg/L
